Assay results collected from several papers.
Parts stem from different laboratories: compare values within a part only.

Block 1
Target: Prothrombin, mature alpha-thrombin (F2, Homo sapiens, UniProt P00734)
Method: aptamer microarray, sandwich
Form: DNA with 2'F-ANA
Sample: in vitro
Concentration: 200 nM
Notes: whole 15-mer aptamer, many near background
Together with: Cy3 exosite-II aptamer, 400 nM
Reading: higher = stronger binding
Quantity: mean fluorescence intensity
GGTTGGTGTGGTTGG (2'F-ANA at 1 2 3 6 7 9 10 11): 60.9 a.u.
GGTTGGTGTGGTTGG (2'F-ANA at 1 2 3 6 7 9 10 11 12): 72.9 a.u.
GGTTGGTGTGGTTGG (2'F-ANA at 2 3 5 6 8 9 10 12 14): 65.8 a.u.
GGTTGGTGTGGTTGG (2'F-ANA at 1 3 6 7 8 10 11 14): 59.9 a.u.

Block 2
Target: Centromere-binding protein 1, full length, N-terminal tag (CBF1, Saccharomyces cerevisiae, UniProt P17106, residues 1-351)
Chain of UniProt P17106 (whole entry, looked up): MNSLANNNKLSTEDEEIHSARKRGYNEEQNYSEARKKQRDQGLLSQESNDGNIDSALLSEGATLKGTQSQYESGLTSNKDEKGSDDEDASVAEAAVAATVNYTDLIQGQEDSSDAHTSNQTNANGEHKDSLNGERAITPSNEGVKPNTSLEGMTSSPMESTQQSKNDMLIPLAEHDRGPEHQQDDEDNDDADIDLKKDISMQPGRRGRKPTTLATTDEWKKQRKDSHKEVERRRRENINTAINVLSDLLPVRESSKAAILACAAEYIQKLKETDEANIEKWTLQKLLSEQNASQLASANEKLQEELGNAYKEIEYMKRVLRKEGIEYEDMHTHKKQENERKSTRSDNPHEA
Method: protein-binding microarray
Form: double-stranded DNA, one strand shown
Sample: in vitro
Concentration: 0.8 µM
Notes: whole 60-bp probe, no competitor
Reading: higher = stronger binding
Quantity: fluorescence intensity
CTAAGGAGGGATAGACGCACGACACTATCTGGTTTCGTCTTGATTCGCTTGACGCTGCTG: 510 a.u.
CTATACAAGTCGTCGTCCGTGACATAGGATCAGTTCGTCTTGATTCGCTTGACGCTGCTG: 646 a.u.
CTAGAGCCCTCCCCCCACGAAGGTTTTTTCCTTTTCGTCTTGATTCGCTTGACGCTGCTG: 471 a.u.

Block 3
Target: Histone acetyltransferase KAT6A, winged helix 2, GST fusion (KAT6A, Homo sapiens, UniProt Q92794, residues 85-181)
Method: protein binding microarray
Form: double-stranded DNA, one strand shown
Sample: in vitro
Concentration: not given
Notes: 8-mer, flanks averaged, mean of 2 arrays, mostly near background
Baseline: not given
Reading: higher = stronger binding
Quantity: E-score
Target sequence (chain): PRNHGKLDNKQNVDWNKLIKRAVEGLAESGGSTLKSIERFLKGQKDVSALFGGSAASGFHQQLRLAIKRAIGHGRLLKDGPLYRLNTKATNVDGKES
ATGCCACG: -0.0357
AAAAAACC: -0.129
ACAAGAGG: -0.0736
AACTGTAC: -0.2

Further values, each from its own experiment
PhoQ, residues 284 288 289 292 302 303 GASLAW — fold induction (PhoP, residues 12 14 15 18 19 AQCLL (Escherichia coli, UniProt P23836); Sort-seq, measured: YFP reporter; E. coli; PhoQ-PhoP variant library, together with: 10 µM Mg2+; baseline: high Mg2+ state, higher = stronger signaling): 2.99

Repeated from above (block 1):
GGTTGGTGTGGTTGG (2'F-ANA at 1 2 3 6 7 9 10 11): 60.9 a.u.
GGTTGGTGTGGTTGG (2'F-ANA at 1 2 3 6 7 9 10 11 12): 72.9 a.u.
